# Published values of several laboratories.
# Compare with care: the assays were run in different laboratories. Numbers after ± are the reported error.
SMILES,organism,assay,test system,setting,how to read,quantity,result
F[P-](F)(F)(F)(F)F.F[P-](F)(F)(F)(F)F.[Cu+2].c1ccc(CN2CCCNCCN(Cc3ccccc3)CCCNCC2)cc1,Leishmania donovani,parasite growth,THP-1 macrophages,intracellular amastigotes,,IC90,> 15 µM
CCCCc1ccc(-c2nc(C)c(C(C)=NNC(=N)N)s2)cc1,Staphylococcus aureus,,NRS194 MRSA,,,MBC,1.3 µg/mL
CC(=O)[O-].CN1CCN2CCN(CC1)CCN(Cc1ccccc1)CC2.F[P-](F)(F)(F)(F)F.[Cu+2],Leishmania donovani,,"THP-1-derived macrophages, intracellular amastigotes",,,IC50,> 20 µM
Nc1ccn(C[C@@H](CO)OCP(=O)(O)OCCCS(=O)(=O)CCCCCCCCCCCCCC2CCC2)c(=O)n1,human gammaherpesvirus 4,qPCR,Akata,,relative to: CC50 over EC50,selectivity index,356
c1ccc(CN2CCNCCN(Cc3ccccc3)CCNCC2)cc1,Leishmania donovani,"parasite growth, resazurin",,"72 h, amastigote",,IC50,> 25 µM
O=C1/C(=N\NC(=S)NN=Cc2cccs2)c2ccccc2N1Cc1ccccc1,varicella-zoster virus,plaque formation,"HEL, TK-",,,EC50,> 20 µM
COc1cc(-c2ccc3oc(-c4ccsc4)c(C#CC4(O)CCCCC4)c3c2)cc(OC)c1OC,hepatitis C virus,HCV replicon replication,"Huh-7.5.1, genotype 1a transient replicon",10 µM,relative to: DMSO,remaining activity,76.6%
CO.[Ag+].[S-]c1ncccn1.c1ccc(P(c2ccccc2)c2ccccc2)cc1.c1ccc(P(c2ccccc2)c2ccccc2)cc1,Staphylococcus epidermidis,,MTCC 435,"50 mg/mL, 18 to 24 h",,inhibition zone diameter,inactive
CC1N=C(CCCCCCCCCCC2=CC(CCCCCCCCCCC3=NC(C)C(O)CC3)C3CCCN3C2)CCC1O (stereo not shown),Leishmania donovani,Alamar Blue,promastigotes,"72 h, 26 °C",,IC90,1.67 ± 0.21 µg/mL
O=S(=O)(CCC(F)(F)F)N[C@H]1CC[C@H](Nc2ncc3c(-c4ccccn4)n[nH]c3n2)CC1,Leishmania donovani,,"promastigotes, LdBOB start clone",,relative to: wild type,EC50 fold change,1
[O-][N+]1=C(c2ccsc2)C2=NCCCN2c2ccccc21,Finegoldia magna,,,,,MIC,0.25 µg/mL
CC(=O)[O-].F[P-](F)(F)(F)(F)F.[Co+2].c1ccc(CN2CCCN3CCN(CCCN(Cc4ccccc4)CC3)CC2)cc1,Leishmania donovani,parasite growth,THP-1 macrophages,intracellular amastigotes,,IC90,> 15 µM
Oc1ccc(C(F)(F)F)cc1-c1nc2c(Cl)cc(Cl)cc2[nH]1,Acinetobacter baumannii,colistin potentiator,"AB 1E4, colistin-resistant",5 µM,,MIC of colistin,1 µg/mL
